Measurements of several laboratories.
Protocols differ between the studies behind these lines. ± marks the error that the study gave.
CNR1: Cannabinoid receptor 1 (CNR1, Homo sapiens, UniProt P21554)
Chain of UniProt P21554 (whole entry, unmodified, looked up): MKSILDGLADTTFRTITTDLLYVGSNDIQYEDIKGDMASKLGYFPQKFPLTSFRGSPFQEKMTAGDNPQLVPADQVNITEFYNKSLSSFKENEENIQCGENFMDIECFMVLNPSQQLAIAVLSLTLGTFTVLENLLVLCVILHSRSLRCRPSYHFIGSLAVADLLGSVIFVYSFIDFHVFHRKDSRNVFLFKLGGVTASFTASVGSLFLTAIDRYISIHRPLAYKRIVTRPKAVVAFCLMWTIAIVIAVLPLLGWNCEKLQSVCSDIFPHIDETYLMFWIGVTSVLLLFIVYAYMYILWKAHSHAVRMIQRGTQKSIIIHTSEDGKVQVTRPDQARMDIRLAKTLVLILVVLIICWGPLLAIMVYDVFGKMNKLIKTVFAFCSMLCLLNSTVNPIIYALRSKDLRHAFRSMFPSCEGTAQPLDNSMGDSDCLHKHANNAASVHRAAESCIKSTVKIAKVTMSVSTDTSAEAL

| SMILES | target | test | system | setting | scale | endpoint | value |
| --- | --- | --- | --- | --- | --- | --- | --- |
| C[C@H]1COCCN1c1nc(NCc2cccnc2C(F)(F)F)c2cccnc2n1 | CNR1 | binding |  | CEREP panel |  | IC50 | > 100 µM |
| CN1CCN(c2cc(-c3ccncc3)c(-c3ccc4ccccc4c3)nn2)CC1 | CNR1 | agonist, FLIPR |  | 12.5 µM |  | activation | -3.8% |
| C=C1CC/C=C(\C)CC[C@@H]2[C@@H]1CC2(C)C | CNR1 | [3H]CP55,940 binding, radioligand displacement |  | 31.6 µM, together with: 0.5 mg/mL BSA |  | inhibition | < 25% |
| CCCCC/C=C\C/C=C\C/C=C\Cc1ccccc1CCCC(=O)OC(CO)CO | CNR1 | cAMP, agonist |  | 10 µM, highest concentration tested |  | Emax | 15% |
| CCCCCCC(C)(C)c1ccc([C@@H]2C[C@H](O)CC[C@H]2CCCO)c(O)c1 | CNR1 | β-arrestin-1 recruitment, agonist |  |  | reference: MDMB-FUBINACA | Emax | < 20% |
| CCCCCCC(C)(C)c1ccc([C@@H]2C[C@H](O)CC[C@H]2CCCO)c(O)c1 | CNR1 (Homo sapiens, UniProt P21554, F177A) | Gαi1 engagement, agonist, BRET |  | TM2 mutant F177A | reference: wild type receptor | Emax | 18 ± 4.7% |
| CCC(CC)(NC(=O)c1ccc(N2CC(OC)C2)c(OC[C@H]2C[C@@H]2CO)n1)C(=O)NCCOCCOCCNC(=O)c1ccc2c(c1)C1(OC2=O)c2ccc(N(C)C)cc2[Si](C)(C)c2cc(N(C)C)ccc21 | CNR1 | binding | CHO membranes | 10 µM, together with: [3H]CP55940 |  | displacement | 21 ± 4% |
| CCCCCc1ccccc1C/C=C\C/C=C\C/C=C\CCCC(=O)OC(CO)CO | CNR1 | cAMP, agonist |  | 10 µM, highest concentration tested |  | Emax | 11% |
| CC/C(=C(\c1ccccc1)c1ccc(OCCN(C)C)cc1)c1ccccc1 | CNR1 | refers to: cAMP | CHO-hCB1 cells | 10 µM | reference: basal | adenylyl cyclase activity increase | 2% |
| CCCCC/C=C\[C@H](C)/C=C\C/C=C\Cc1ccccc1CCCC(=O)N[C@H](C)CO | CNR1 | cAMP, agonist |  | 10 µM, highest concentration tested |  | Emax | 57% |
| COC(=O)[C@@H](NC(=O)c1nn(Cc2ccc(F)cc2)c2ccccc12)C(C)C | CNR1 | Gαi protein dissociation, agonist |  |  |  | Emax | 99.91 ± 0.15% |
| COC(=O)[C@@H](NC(=O)c1nn(Cc2ccc(F)cc2)c2ccccc12)C(C)(C)C | Cannabinoid receptor 1, with Gz (CNR1, Homo sapiens, UniProt P21554) | GTP turnover, agonist, refers to: Gz Gα subtype |  |  |  | maximal efficacy | 110% |
